Assay results collected from several papers.
Lines come from different studies, so protocols differ. Several values in a cell are separate wells, animals, samples, runs or records. ± marks the error that the study gave.

Structure (SMILES)	target or system	test	setting	scale	quantity	result
Cc1nc2c([nH]1)c(=O)n(C)c(=O)n2Cc1ccco1	HaCaT keratinocytes, benzo[a]pyrene-induced	LC-MS	2 µM, 6 h, added: imiquimod 0.5 µM	–	imiquimod metabolism	no effect
O=C(/C=C/C=C/C=C/C1CCCCC1)NC1=C[C@@](O)(/C=C/C=C/C=C/C(=O)NC2=C(O)CCC2=O)[C@@H]2O[C@@H]2C1=O	HCC827	cell growth, CellTiter-Glo	78 h	–	GI50	19.8 µM
Cc1cc(NS(=O)(=O)c2ccc(NC(=O)/C(C#N)=C/c3ccc(N4CCCCC4)cc3)cc2)no1	HCT-116	qRT-PCR, measured: Bax	concentration not given	relative to: untreated	mRNA level increase	5.9 fold
CN1CC[C@H](c2c(O)cc(O)c3c(=O)cc(-c4ccccc4Cl)oc23)[C@H](O)C1	iCell Cardiomyocytes (hiPSC-derived)	xCELLigence Cardio impedance	concentration not given, 2 h	relative to: control	beat rate	77.1%
COc1cc2ncnc(Cc3cccc(-c4ccccc4CO)c3)c2cc1OC	A549	mitochondrial oxygen consumption, Seahorse XF96	10 µM	–	inhibition	20%
COc1cccc2c1C(=O)c1c(O)c3c(c(O)c1C2=O)C[C@@](O)(C(=O)CO)C[C@@H]3O[C@H]1C[C@H](N)[C@H](O)[C@H](C)O1	HepG2	protein level, measured: PERK	24 h	–	representative mode point of departure	0.0324 µM
Cc1cc(Nc2ncc(Cl)c(Nc3ccccc3S(=O)(=O)C(C)C)n2)c(OC(C)C)cc1C1CCNCC1	CLB-BAR	phosphoproteomics LC-MS/MS, measured: IWS1 phosphorylation	200 nM, 60 min	relative to: untreated	log2 fold change	-3.13
Clc1ccc(C2(c3ccc(-c4cn[nH]c4)cc3)CCNCC2)cc1	SK-OV-3	ATP	0.01 µM, 4 days, 3D U-bottom low-attachment	relative to: untreated	relative cell number	113%
CCn1cc(-c2cc(Cn3ccnc3)cc3c2CCN([C@H](c2cc(OC)ccn2)C2CC2)C3=O)c(C(F)(F)F)n1	HCC15	cell growth, inhibitor	120 h	–	EC50	> 30 µM
CC(C)(C)c1cnc(CSc2cnc(NC(=O)C3CCNCC3)s2)o1	iCell Cardiomyocytes (hiPSC-derived)	CellTiter-Glo	concentration not given, 24 h	relative to: control	ATP level	83.9%
COc1cnc2cccc(N3CCc4c(cc(Cn5ccnc5C)cc4-c4cn(C)nc4C(F)(F)F)C3=O)c2c1	SKMEL31	cell growth	120 h	–	EC50	> 30 µM
C[C@@H]1CN(C(=O)c2ccc(NC(=O)c3cc(O[C@H](C)c4c(Cl)ccc(F)c4Cl)c(N)nn3)cc2)C[C@H](C)N1	Ba/F3 EML4-ALK variant 1 E1210K	cell viability	–	–	Emax	99.8%
O=C(c1ccc(/C=C/c2n[nH]c3ccccc23)cc1)N1CCNCC1	iCell Cardiomyocytes (hiPSC-derived)	cellular impedance	concentration not given, 24 h	relative to: control	cell index	106%
Cn1c(Nc2nc3ccc(C(F)(F)F)cc3s2)nc2cc(C(=O)NCCOCCO)ccc21	SH-SY5Y	RNA-seq, measured: FGF5 mRNA	5 µM, 5 h	relative to: untreated cells	fold change	2.13
CCn1cc(-c2cc(Cn3ccoc3=N)cc3c2CCN([C@@H](C)c2cc(OC)ccn2)C3=O)c(C(F)(F)F)n1	Farage	cell growth	120 h	–	EC50	3.53 µM
NC(N)=NN=C(C=Cc1ccc([N+](=O)[O-])o1)C=Cc1ccc([N+](=O)[O-])o1	ARPE-19 HiBiT fibulin-3	HiBiT luminescence	1.66 µM	–	fibulin-3 level	-47%
CC/C(=N\NC(=O)C(C)Nc1ccccc1)c1ccc(O)c(C)c1O (centres unmarked)	SK-OV-3	Western blot, measured: LATS	10 µM, 6 h, 3D gellan gum culture, unit not given	relative to: β-actin	protein level	0.54 ± 0.21
OC1CCN(c2ccc(/C=N/NC(=S)Nc3ccc(Cl)cc3)cc2)CC1	BEAS-2B and A549	MTT	–	relative to: IC50 BEAS-2B over IC50 A549	selectivity ratio	4.7
C=CC(=O)N1CCC([C@@H]2CCNc3c(C(N)=O)c(-c4ccc(Oc5ccccc5)cc4)nn32)CC1	Ramos	calcium flux, FLIPR	–	–	maximal inhibition	≤ 90%
Cc1ccc(NC(=O)c2ccc(CN3CCN(C)CC3)cc2)cc1Nc1nccc(-c2cccnc2)n1	iCell Cardiomyocytes (hiPSC-derived)	CellTiter-Glo	concentration not given, 24 h	relative to: control	ATP level	94.7%
Cn1cc(-c2ccc(F)c(C(F)(F)F)c2)nc1C1CCN(c2ncnc3[nH]ncc23)CC1	SK-OV-3	ATP	0.1 µM, 4 days, 3D U-bottom low-attachment	relative to: untreated	relative cell number	114%
O=C(NOC[C@H](O)CO)c1ccc(F)c(F)c1Nc1ccc(I)cc1F	A549	–	0.1562 µM, 72 h	–	viability	59.3%

Structure (SMILES)	target or system	test	setting	scale	quantity	result
CCCCCCNC(=O)n1cc(F)c(=O)[nH]c1=O	SW-403	LC-MS, measured: Cer(d18:1/14:0)	0.1 µM	–	ceramide level	3.59 ± 0.54 pmol/mg protein
O=C(CCl)N[C@@H](Cc1c[nH]c2ccccc12)C(=O)O	HeLa expressing HaloTag	cell permeability, chloroalkane penetration	–	–	CP50	529 ± 51 nM
N#CC[C@H](C1CCCC1)n1cc(-c2ncnc3[nH]ccc23)cn1	iCell Cardiomyocytes (hiPSC-derived)	CellTiter-Glo	concentration not given, 24 h	relative to: control	ATP level	105%
Cc1cc(Nc2ncc(Cl)c(Nc3ccccc3S(=O)(=O)C(C)C)n2)c(OC(C)C)cc1C1CCNCC1	Ba/F3 EML4-ALK variant 1 S1206F	cell viability	–	–	Emax	100%
COc1ccc(-n2nc(C(C)=O)s/c2=N\N=C(/C)c2ccc(NC(=O)c3ccc(C)cc3)cc2)cc1	HepG2	–	10 µM	–	viability	2.68%
OCc1nc2ccc(NCc3ccc(C(F)(F)F)cc3)cc2[nH]1	sample A patient iPSC NPCs	cell protection, MTS	up to 100 µM, 24 h	–	Emax	20%
O=C1CC[C@H](C(=O)O)N1	–	binding, equilibrium dialysis LC-MS	5 µM, thermostabilized A2AR-BRIL construct	relative to: no-protein control, direction not given	z-scored log2 fold change	0.276
C=CC(=O)Nc1cccc(Oc2nc(Nc3ccc(N4CCN(C)CC4)cc3)nc3ccoc23)c1	TMD8 RAC2 knockout	calcium flux, FLIPR	4 h preincubation	–	IC50	0.033 µM
Cn1cc(Nc2nccc(-c3ccc4c(c3)CN(C3COC3)CC[C@H]4NC(=O)c3cn(C(C)(C)C)nn3)n2)cn1	human B cells	–	100 nM, 64 h, stimulation-upregulated genes, added: anti-IgM	–	number of upregulated genes	0
O=C(Oc1cc(O)cc2c1C[C@@H](OC(=O)c1cc(O)c(O)c(O)c1)[C@@H](c1cc(O)c(O)c(O)c1)O2)c1cc(O)c(O)c(O)c1	Jurkat TAg T cells	phospho-flow cytometry	500 nM, 30 min, 37 °C, unstimulated	relative to: DMSO	phospho-ZAP-70 positive cells	3.4%
Cn1cc(-c2ccc(-c3cncc(Cl)c3N3CCC4(CCNC4=O)CC3)cc2)cn1	COLO 205	gene expression, microarray, measured: KCNN4 mRNA	concentration not given, 2 h	relative to: untreated cells	log2 fold change	2.19
CCOC(=O)c1sc(NCc2ncccn2)nc1-c1ccccn1	THLE-2	–	–	relative to: CC50 THLE-2 over Huh-7	selectivity ratio	< 2
C=CC(=O)N1CCC[C@@H](n2nc(-c3ccc(Oc4ccccc4)cc3)c3c(N)ncnc32)C1	TMD8 RAC2 knockout	calcium flux, FLIPR	1 h preincubation	–	IC50	0.0061 µM
Cc1cccc(-c2[nH]c(CNc3ccccc3F)nc2-c2ccc3ncnn3c2)n1	MM1.S pomalidomide-resistant	XTT	5 µM	–	viability	13% and 12% and 16%
COc1cc(N2CCC(N3CCN(C)CC3)CC2)ccc1Nc1ncc(Cl)c(Nc2ccccc2S(=O)(=O)C(C)C)n1	iCell Cardiomyocytes (hiPSC-derived)	xCELLigence Cardio impedance	concentration not given, 2 h	relative to: control	beat amplitude	99.8%
Cn1cncc1C1=CN(c2ncnc3[nH]cnc23)CCS1	NCI/ADR-RES	–	ovarian cancer cell line	–	TGI	> 200 µM
CCCCCCCC(=O)SCCNC(=O)CCNC(=O)[C@H](O)C(C)(C)COP(=O)(O)OP(=O)(O)OC[C@H]1O[C@@H](n2cnc3c(N)ncnc32)[C@H](O)[C@@H]1OP(=O)(O)O	–	binding, equilibrium dialysis LC-MS	5 µM, thermostabilized A2AR-BRIL construct	relative to: no-protein control, direction not given	z-scored log2 fold change	1.11
CCCCN1CCN(c2ccc3[nH]c(-c4ccc5[nH]c(-c6ccc(OCC)c(OCC)c6)nc5c4)nc3c2)CC1	NCI/ADR-RES	cell growth, NCI-60 SRB	10 µM, 48 h	–	growth percent	73%
Cc1ccc(F)c(NC(=O)Nc2ccc(-c3cccc4[nH]nc(N)c34)cc2)c1	iCell Cardiomyocytes (hiPSC-derived)	CellTiter-Glo	concentration not given, 24 h	relative to: control	ATP level	105%
COc1cc2c(cc1O)[C@@H](Cc1ccc(O)c(Oc3cc4c(cc3OC)CCN(C)[C@@H]4Cc3ccc(O)cc3)c1)N(C)CC2	3T3-L1	adipocyte lipid accumulation, Nile Red staining	10 µM	–	inhibition	28.3 ± 0.8%
CCN1CCN(Cc2ccc(NC(=O)Nc3ccc(Oc4cc(NC)ncn4)cc3)cc2C(F)(F)F)CC1	iCell Cardiomyocytes (hiPSC-derived)	CellTiter-Glo	concentration not given, 24 h	relative to: control	ATP level	102%
COc1ccc2c(N(C)c3ccc(/C(C)=N/OCCN)cc3)c3c(Cl)coc3nc2c1	LNCaP C-81	flow cytometry	1 µM, 72 h	–	G2/M cells increase	3 fold
